# Measured values pooled from the literature.
# A part holds a random share of what one study measured.
# Chain of UniProt Q9BYP7 (whole entry, looked up): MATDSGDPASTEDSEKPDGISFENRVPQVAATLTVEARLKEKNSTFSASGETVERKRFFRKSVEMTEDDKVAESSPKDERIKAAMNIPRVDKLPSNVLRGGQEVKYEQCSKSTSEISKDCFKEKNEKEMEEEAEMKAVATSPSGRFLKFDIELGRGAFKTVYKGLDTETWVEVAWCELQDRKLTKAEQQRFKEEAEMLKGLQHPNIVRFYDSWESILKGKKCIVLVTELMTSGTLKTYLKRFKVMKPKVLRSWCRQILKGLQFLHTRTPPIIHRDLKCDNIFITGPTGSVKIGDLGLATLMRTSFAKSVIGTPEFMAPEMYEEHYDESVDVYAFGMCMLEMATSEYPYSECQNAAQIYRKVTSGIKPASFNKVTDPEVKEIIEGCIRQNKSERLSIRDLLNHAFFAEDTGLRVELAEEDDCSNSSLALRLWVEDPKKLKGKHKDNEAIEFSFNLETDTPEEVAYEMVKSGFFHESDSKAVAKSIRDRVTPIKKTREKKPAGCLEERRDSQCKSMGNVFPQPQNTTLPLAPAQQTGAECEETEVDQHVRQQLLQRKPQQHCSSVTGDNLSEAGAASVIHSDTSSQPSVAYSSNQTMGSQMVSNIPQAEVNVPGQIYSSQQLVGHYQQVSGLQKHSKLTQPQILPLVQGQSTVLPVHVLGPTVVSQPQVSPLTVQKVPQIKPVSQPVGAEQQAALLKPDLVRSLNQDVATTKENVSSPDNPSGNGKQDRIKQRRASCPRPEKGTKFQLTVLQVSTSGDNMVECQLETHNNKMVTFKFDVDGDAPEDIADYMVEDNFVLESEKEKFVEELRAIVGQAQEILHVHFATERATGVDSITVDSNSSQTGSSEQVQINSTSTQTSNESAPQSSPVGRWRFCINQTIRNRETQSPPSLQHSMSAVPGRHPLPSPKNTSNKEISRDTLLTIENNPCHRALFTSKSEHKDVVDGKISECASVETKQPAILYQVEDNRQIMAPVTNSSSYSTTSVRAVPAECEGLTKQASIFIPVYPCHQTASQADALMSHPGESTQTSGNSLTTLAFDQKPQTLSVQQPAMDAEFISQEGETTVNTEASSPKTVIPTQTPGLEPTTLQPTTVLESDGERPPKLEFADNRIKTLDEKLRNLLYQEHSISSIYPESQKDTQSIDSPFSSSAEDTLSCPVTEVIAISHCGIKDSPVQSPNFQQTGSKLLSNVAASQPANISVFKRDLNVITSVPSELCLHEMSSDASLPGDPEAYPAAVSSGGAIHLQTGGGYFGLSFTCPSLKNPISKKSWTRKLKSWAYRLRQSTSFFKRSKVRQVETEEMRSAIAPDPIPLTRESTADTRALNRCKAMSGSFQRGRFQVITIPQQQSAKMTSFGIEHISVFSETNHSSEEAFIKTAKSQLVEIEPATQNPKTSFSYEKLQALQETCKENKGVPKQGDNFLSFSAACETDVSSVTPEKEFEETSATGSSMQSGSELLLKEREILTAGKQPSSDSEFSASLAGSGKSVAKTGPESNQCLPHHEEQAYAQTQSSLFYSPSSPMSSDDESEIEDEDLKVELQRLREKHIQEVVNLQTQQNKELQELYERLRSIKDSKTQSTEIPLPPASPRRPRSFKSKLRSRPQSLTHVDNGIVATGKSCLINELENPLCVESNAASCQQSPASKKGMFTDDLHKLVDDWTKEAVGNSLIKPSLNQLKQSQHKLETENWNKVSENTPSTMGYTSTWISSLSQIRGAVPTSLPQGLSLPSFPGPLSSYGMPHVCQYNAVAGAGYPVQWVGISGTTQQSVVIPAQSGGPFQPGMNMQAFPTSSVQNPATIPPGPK
# Chain of UniProt Q14004 (whole entry, looked up): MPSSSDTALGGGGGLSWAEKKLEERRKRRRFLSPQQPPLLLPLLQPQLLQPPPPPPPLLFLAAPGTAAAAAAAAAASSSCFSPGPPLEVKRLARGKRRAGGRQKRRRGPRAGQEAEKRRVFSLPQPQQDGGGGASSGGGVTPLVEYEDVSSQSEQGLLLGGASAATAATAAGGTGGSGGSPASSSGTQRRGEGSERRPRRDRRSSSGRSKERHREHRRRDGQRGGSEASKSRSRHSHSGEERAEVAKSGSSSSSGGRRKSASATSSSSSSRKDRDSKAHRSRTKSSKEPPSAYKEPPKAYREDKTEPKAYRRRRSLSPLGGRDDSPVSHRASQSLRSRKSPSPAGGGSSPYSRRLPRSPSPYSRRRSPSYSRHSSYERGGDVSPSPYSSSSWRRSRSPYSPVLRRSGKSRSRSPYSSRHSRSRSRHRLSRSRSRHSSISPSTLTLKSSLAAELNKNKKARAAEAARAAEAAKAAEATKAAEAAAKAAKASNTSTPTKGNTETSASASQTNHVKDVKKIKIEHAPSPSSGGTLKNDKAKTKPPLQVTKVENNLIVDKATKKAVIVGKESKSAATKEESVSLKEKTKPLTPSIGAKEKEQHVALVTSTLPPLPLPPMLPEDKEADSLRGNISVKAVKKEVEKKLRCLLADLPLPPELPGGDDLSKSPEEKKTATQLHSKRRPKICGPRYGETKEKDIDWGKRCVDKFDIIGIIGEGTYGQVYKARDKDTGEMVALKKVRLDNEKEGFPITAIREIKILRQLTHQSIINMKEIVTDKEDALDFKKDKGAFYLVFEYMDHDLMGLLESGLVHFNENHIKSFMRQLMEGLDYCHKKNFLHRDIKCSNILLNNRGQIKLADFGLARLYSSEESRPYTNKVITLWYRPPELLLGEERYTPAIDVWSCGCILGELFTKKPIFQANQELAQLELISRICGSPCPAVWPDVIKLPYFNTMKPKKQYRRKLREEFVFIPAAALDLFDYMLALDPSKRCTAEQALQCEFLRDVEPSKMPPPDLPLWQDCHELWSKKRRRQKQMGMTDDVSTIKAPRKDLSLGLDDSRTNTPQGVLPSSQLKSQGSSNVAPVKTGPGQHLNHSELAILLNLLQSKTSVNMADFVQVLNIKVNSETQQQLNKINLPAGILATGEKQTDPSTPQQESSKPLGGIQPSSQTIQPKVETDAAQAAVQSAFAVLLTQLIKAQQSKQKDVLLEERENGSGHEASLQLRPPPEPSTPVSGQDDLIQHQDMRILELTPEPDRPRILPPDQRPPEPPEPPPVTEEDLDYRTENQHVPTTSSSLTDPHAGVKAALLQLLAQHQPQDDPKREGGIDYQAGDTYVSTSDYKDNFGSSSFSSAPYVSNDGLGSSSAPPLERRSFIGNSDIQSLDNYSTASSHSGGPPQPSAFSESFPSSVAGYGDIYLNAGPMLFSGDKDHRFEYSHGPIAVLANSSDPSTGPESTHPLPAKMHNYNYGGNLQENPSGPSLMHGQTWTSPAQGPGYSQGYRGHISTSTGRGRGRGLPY
# Chain of UniProt Q9BWU1 (whole entry, looked up): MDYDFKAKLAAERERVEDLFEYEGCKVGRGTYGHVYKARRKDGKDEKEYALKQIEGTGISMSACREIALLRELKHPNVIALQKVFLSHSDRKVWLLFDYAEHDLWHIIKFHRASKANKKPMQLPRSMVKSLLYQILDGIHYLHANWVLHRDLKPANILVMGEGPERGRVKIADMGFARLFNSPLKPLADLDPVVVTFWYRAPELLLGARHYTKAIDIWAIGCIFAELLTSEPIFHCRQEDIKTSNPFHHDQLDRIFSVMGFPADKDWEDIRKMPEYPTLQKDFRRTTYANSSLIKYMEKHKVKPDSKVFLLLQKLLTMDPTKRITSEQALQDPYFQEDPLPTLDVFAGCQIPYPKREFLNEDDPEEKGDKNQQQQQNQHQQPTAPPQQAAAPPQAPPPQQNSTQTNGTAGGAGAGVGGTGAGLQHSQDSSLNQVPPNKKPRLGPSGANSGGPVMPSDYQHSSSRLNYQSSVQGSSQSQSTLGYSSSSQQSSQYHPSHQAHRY
# Chain of UniProt P19784 (whole entry, looked up): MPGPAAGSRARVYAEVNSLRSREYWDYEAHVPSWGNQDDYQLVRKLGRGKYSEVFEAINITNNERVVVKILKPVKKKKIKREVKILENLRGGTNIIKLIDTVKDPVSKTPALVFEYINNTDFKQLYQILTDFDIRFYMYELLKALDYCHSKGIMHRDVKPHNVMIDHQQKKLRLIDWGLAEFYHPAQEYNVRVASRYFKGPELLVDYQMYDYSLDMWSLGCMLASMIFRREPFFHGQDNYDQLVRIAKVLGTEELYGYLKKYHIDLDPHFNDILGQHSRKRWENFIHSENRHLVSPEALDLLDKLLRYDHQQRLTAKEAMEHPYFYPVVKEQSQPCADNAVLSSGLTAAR

# Study 1
# Cell line: Huh-7
# Tested at: 10 µM
# Time: 24 h
Structure (SMILES),viability
FC(F)(F)C(Cl)Br (stereo not shown),103%
CN(C)CCN(Cc1ccccc1)c1ccccn1,89.8%
CCCCN1CCCCC1C(=O)Nc1c(C)cccc1C (stereo not shown),99.6%
Nc1nc2c(c(=O)[nH]1)N(C=O)C(CNc1ccc(C(=O)N[C@@H](CCC(=O)O)C(=O)O)cc1)CN2 (stereo partly shown),96.8%
CC(C)(C)NC[C@H](O)COc1nsnc1N1CCOCC1,103%
COc1c2occc2cc2ccc(=O)oc12,100%

# Study 2
# Target: His6 tag
# Method: AlphaScreen counter screen
# Tested at: concentration not given
Compound,inhibition [%]
COc1ccc(-c2nnc3ccc(SCC(=O)O)nn23)cc1OC,-11.4
COc1ccc(-c2nnc3ccc(SCC(=O)N4CCC(C)CC4)nn23)cc1OC,9.1
O=C(NCc1ccccn1)c1n[nH]c2ccccc12,4.5
COc1ccc(Cl)c(Nc2nc3ccccc3nc2NS(=O)(=O)c2cccc(NC(=O)C(C)(C)N)c2)c1,-21.6
COc1cccc(Nc2ncc3c(n2)CCNC3)c1,13
O=C(Nc1ccncc1)Nc1c(Cl)cc(Cl)cc1Cl,0.4
N#CC(=C(N)Sc1ccc(N)cc1)c1ccccc1C(F)(F)F,13.3
CCOC(=O)c1ccc(NC(=O)Nc2ccc(Cl)c(Cl)c2)cc1,-16.3
CC(=O)Nc1ccc(C=C(C#N)c2nc3ccccc3s2)cc1,13.4

# Study 3
# SMILES: N#Cc1ccc(Nc2ccc3[nH]c(=O)[nH]c3c2)c(Cl)c1
# Tested at: 1 µM
target,read-out,method,remaining binding [%]
"Inhibitor of nuclear factor kappa-B kinase subunit alpha (CHUK, Homo sapiens, UniProt O15111)",cell-free assay,competition with immobilised ligand,100
"Ephrin type-A receptor 7 (EPHA7, Homo sapiens, UniProt Q15375)",cell-free assay,competition with immobilised ligand,100
"Serine/threonine-protein kinase 32C (STK32C, Homo sapiens, UniProt Q86UX6)",cell-free assay,competition with immobilised ligand,82
"LIM domain kinase 2 (LIMK2, Homo sapiens, UniProt P53671)",cell-free assay,competition with immobilised ligand,100
"Receptor-type tyrosine-protein kinase FLT3, autoinhibited (FLT3, Homo sapiens, UniProt P36888)",cell-free assay,competition with immobilised ligand,97
"Epidermal growth factor receptor (EGFR, Homo sapiens, UniProt P00533, L858R)",cell-free assay,competition with immobilised ligand,100
"Tyrosine-protein kinase TXK (TXK, Homo sapiens, UniProt P42681)",binding,competition with immobilised ligand,87
"Dual specificity mitogen-activated protein kinase kinase 1 (MAP2K1, Homo sapiens, UniProt Q02750)",cell-free assay,competition with immobilised ligand,88
"AP2-associated protein kinase 1 (AAK1, Homo sapiens, UniProt Q2M2I8)",binding,,100
"Cyclin-dependent kinase 13 (CDK13, Homo sapiens, UniProt Q14004)",cell-free assay,competition with immobilised ligand,100
"Serine/threonine-protein kinase 10 (STK10, Homo sapiens, UniProt O94804)",cell-free assay,competition with immobilised ligand,100
"Mitogen-activated protein kinase kinase kinase 4 (MAP3K4, Homo sapiens, UniProt Q9Y6R4)",cell-free assay,competition with immobilised ligand,95
"RAC-beta serine/threonine-protein kinase (AKT2, Homo sapiens, UniProt P31751)",cell-free assay,competition with immobilised ligand,89
"Cyclin-dependent kinase 19 (CDK19, Homo sapiens, UniProt Q9BWU1)",,competition binding,77
"Epidermal growth factor receptor (EGFR, Homo sapiens, UniProt P00533, T790M)",cell-free assay,competition with immobilised ligand,91
"Serine/threonine-protein kinase/endoribonuclease IRE1 (ERN1, Homo sapiens, UniProt O75460)",cell-free assay,competition with immobilised ligand,86
"Receptor-type tyrosine-protein kinase FLT3 (FLT3, Homo sapiens, UniProt P36888, D835H)",cell-free assay,competition with immobilised ligand,100
"Hepatocyte growth factor receptor (MET, Homo sapiens, UniProt P08581, M1250T)",cell-free assay,competition with immobilised ligand,100
"Mitogen-activated protein kinase kinase kinase 3 (MAP3K3, Homo sapiens, UniProt Q99759)",cell-free assay,competition with immobilised ligand,84
"Mitogen-activated protein kinase kinase kinase 15 (MAP3K15, Homo sapiens, UniProt Q6ZN16)",cell-free assay,competition with immobilised ligand,68
"Serine/threonine-protein kinase WNK3 (WNK3, Homo sapiens, UniProt Q9BYP7)",cell-free assay,competition with immobilised ligand,100
"Casein kinase II subunit alpha' (CSNK2A2, Homo sapiens, UniProt P19784)",cell-free assay,competition with immobilised ligand,83

# Study 4
# Target: Myosin light chain kinase 2, skeletal/cardiac muscle (MYLK2, Homo sapiens, UniProt Q9H1R3)
# Chain of UniProt Q9H1R3 (whole entry, looked up): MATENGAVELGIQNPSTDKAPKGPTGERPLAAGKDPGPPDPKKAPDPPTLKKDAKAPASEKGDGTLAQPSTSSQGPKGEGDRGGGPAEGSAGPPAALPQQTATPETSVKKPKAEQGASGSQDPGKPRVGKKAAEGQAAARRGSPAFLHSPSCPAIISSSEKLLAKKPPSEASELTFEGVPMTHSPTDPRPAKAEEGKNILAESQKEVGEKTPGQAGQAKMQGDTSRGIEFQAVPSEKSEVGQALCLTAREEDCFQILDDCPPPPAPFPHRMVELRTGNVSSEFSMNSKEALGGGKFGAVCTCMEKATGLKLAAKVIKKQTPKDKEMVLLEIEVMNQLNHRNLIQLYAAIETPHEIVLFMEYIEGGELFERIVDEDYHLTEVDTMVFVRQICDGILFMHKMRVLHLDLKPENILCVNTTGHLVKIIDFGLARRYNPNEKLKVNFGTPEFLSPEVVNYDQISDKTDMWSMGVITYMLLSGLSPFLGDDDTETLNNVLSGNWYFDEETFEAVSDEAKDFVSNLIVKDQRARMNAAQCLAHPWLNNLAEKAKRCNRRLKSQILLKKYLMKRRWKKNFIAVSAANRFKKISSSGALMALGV
# Read-out: enzyme activity
# Mode: inhibitor
# Tested at: 0.5 µM
# Reference: control
Structure (SMILES),remaining activity [%]
CCN(CC)C(=O)c1ccc(Nc2nc(OCC3CCCCC3)c3[nH]cnc3n2)cc1,94.7
O=c1cc(-c2cccc3c2Sc2ccccc2S3)oc(N2CCOCC2)c1,97.4
Ic1cccc(CSc2nnc(-c3ccncc3)o2)c1,101
N#C/C(=C\c1ccc(O)c(O)c1)C(=O)NCc1ccccc1,97.9
Cc1cc2ncc(-c3ccccc3)nc2cc1C,99.7
Cc1nc2cc3nc(-c4cccs4)cnc3cc2n1C,74.5
CN([C@@H](Cc1ccc(OS(=O)(=O)c2cccc3cnccc23)cc1)C(=O)N1CCN(c2ccccc2)CC1)S(=O)(=O)c1cccc2cnccc12,98.8
COc1cc2c(cc1OC)-c1[nH]nc(Nc3cccc(F)c3)c1C2,86.4
O=C(Nc1cccc(Nc2nccc(Nc3cccc(C(F)(F)F)c3)n2)c1)C1CC1,93.6
c1ccc(-c2[nH]ncc2-c2ccnc3ccccc23)nc1,98.3
O=C1C(Cl)=C(N2C(=O)CCC2=O)C(=O)c2ccccc21,98.1
CCOc1nc(NC(=O)Cc2cc(OC)ccc2OC)cc(N)c1C#N,99.6
Cn1nc2c3c(cccc31)C(=O)c1ccccc1-2,78.8
C[C@@H]1CCN(C(=O)CC#N)C[C@@H]1N(C)c1ncnc2[nH]ccc12,99
COc1cc2ncnc(Nc3ccc(O)c(Br)c3)c2cc1OC,87.3
CCN(CC)CCNC(=O)c1c(C)[nH]c(/C=C2\C(=O)Nc3ccc(F)cc32)c1C,7.74
Nc1cccc(-c2cc3c(Oc4cccc(O)c4)ncnc3[nH]2)c1,29.9
O=C(NC(NC(=S)Nc1ccc(F)c([N+](=O)[O-])c1)C(Cl)(Cl)Cl)C(c1ccccc1)c1ccccc1 (stereo not shown),104
CN(C)C[C@H]1CCn2c(c(C3=C(c4cn(C)c5ccccc45)C(=O)NC3=O)c3ccccc32)C1,74.2
Cc1cn(-c2cc(NC(=O)c3ccc(C)c(Nc4nccc(-c5cccnc5)n4)c3)cc(C(F)(F)F)c2)cn1,111
COc1cc2ncnc(Nc3cccc(Cl)c3)c2cc1OC,90.1
c1ccc(-c2cnc(Nc3ccc(OCCN4CCCC4)cc3)s2)cc1,28.7
N#Cc1c(NC(=O)c2cccc3ccccc23)sc2c1CCCC2,101
CCN(CC)CCNC(=O)c1c(C)[nH]c(/C=C2\C(=O)Nc3ccc(Cl)cc32)c1C,10

# A few entries again (study 4):
Structure (SMILES),remaining activity [%]
O=C(Nc1cccc(Nc2nccc(Nc3cccc(C(F)(F)F)c3)n2)c1)C1CC1,93.6
c1ccc(-c2[nH]ncc2-c2ccnc3ccccc23)nc1,98.3
O=C1C(Cl)=C(N2C(=O)CCC2=O)C(=O)c2ccccc21,98.1
CCOc1nc(NC(=O)Cc2cc(OC)ccc2OC)cc(N)c1C#N,99.6
Cn1nc2c3c(cccc31)C(=O)c1ccccc1-2,78.8
C[C@@H]1CCN(C(=O)CC#N)C[C@@H]1N(C)c1ncnc2[nH]ccc12,99
COc1cc2ncnc(Nc3ccc(O)c(Br)c3)c2cc1OC,87.3
CCN(CC)CCNC(=O)c1c(C)[nH]c(/C=C2\C(=O)Nc3ccc(F)cc32)c1C,7.74
